Experimental data of several laboratories.
Each numbered part is a random draw from the data of one study; scales do not carry over between parts. Substitutions count along the parent as printed.
Chain of UniProt Q9P0L2 (whole entry, looked up): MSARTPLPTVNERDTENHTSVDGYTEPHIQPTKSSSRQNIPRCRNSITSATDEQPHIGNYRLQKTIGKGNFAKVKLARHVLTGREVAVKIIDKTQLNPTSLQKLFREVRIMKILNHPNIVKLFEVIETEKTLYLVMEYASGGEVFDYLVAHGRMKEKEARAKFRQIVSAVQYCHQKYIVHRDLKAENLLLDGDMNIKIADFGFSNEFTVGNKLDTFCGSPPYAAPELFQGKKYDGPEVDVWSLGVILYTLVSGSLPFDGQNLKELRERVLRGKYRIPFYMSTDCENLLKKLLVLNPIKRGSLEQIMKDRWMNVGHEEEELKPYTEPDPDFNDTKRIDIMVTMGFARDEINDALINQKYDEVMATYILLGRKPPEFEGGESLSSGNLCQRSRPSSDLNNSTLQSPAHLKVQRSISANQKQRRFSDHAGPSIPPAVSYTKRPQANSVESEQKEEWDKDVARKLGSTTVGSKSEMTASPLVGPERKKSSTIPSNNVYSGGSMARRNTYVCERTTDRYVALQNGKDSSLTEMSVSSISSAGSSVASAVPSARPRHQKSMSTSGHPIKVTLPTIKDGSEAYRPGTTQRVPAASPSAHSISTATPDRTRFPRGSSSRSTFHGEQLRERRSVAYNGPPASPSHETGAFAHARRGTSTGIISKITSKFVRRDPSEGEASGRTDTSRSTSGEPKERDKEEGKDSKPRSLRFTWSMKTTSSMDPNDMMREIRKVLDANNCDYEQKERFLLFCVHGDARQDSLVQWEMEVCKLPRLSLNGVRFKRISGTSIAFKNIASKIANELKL

Set 1 — effect on: binding; method: phage display NGS; form: peptide; tested at: concentration not given; relative to: input library; measurement: enrichment fold change
Target: UDP-N-acetylglucosamine--peptide N-acetylglucosaminyltransferase 110 kDa subunit (OGT, Homo sapiens, UniProt O15294)
Chain of UniProt O15294 (whole entry, looked up): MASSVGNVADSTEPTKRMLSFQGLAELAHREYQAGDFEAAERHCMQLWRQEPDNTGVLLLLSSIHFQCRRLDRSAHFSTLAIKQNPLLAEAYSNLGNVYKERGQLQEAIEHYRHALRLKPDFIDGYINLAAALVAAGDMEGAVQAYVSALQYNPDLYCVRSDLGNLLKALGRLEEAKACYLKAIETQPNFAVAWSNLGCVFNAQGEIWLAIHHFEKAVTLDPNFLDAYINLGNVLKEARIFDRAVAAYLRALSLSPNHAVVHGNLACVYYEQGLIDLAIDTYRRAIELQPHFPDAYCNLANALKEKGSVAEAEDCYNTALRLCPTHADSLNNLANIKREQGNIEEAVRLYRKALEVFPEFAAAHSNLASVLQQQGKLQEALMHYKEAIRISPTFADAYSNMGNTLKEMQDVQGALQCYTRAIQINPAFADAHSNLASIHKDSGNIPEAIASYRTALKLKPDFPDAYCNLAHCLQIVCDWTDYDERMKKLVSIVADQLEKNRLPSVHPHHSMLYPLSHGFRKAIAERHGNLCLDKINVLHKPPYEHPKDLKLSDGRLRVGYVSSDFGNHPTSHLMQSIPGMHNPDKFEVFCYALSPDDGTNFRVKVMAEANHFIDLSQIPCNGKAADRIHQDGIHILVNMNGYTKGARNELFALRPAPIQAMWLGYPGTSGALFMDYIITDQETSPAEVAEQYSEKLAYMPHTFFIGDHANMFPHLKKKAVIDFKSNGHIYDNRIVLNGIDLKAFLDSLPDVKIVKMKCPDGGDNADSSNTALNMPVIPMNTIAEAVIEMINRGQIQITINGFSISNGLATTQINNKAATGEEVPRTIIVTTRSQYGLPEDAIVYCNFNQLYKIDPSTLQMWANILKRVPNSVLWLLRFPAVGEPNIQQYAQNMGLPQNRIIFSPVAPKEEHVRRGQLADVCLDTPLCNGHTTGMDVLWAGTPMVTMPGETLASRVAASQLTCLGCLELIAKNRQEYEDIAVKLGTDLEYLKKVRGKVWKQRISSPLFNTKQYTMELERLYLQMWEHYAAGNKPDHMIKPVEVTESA
EIPTVDFHPMYMIKI: 2.71
HIYPRHQHSFEPVK: 10.1
FSPYRHFQHSHSSTD: 2.54
RFNADHHYHDHHIVA: 4.91
HRNTVQHWQQVYPIH: 5.1
SDRTPYTPRYQISY: 2.67
HGQQMKNPHHHHPMW: 13.2
HVNYTTGHHTMSMH: 5.71

Set 2 — target: vanadate, free oxyanion; method: microfluidic competitive inhibition; sample: in vitro, cell-free expressed; tested at: not given; reading: lower = stronger binding; measurement: oxyanion analog dissociation constant
Setting: derived from inhibition constants, unchanged parent 676 nM
Starting sequence: PafA, mature enzyme, eGFP fusion (Elizabethkingia meningoseptica, UniProt Q9KJX5); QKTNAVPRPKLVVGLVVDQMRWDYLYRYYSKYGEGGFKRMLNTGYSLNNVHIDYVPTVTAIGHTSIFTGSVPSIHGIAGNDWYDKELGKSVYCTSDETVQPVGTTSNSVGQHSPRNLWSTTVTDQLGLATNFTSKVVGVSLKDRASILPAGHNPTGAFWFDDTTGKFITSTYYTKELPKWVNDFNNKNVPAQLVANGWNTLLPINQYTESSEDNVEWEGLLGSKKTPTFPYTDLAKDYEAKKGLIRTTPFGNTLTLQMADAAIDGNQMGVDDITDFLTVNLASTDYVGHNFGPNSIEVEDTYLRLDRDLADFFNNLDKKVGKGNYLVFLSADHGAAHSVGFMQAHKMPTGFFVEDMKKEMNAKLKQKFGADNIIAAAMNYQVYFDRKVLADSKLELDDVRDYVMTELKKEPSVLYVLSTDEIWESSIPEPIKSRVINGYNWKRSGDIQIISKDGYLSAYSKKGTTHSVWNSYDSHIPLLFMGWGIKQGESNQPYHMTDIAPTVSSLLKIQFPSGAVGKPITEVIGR
L148G: 798 nM
T301G: 544 nM
V55A: 654 nM
G103A: 634 nM
A336V: 562 nM
Q343V: 764 nM
H495G: 548 nM
V139G: 617 nM

Further values, each from its own experiment
CNC(=O)c1ccc(-c2cnn3ccc(C(=O)N(C)c4ccc(Cl)c(C(=O)OC)c4)cc23)cc1 — IC50 (MAPK1 (Homo sapiens, UniProt P28482); enzyme activity, inhibitor): > 30 µM
Cn1cncc1[C@](O)(COc1ccc(C#N)cc1-c1ccc(OC(F)(F)F)cc1)c1ccc(C#N)cc1 — remaining binding (MARK1 (Homo sapiens, UniProt Q9P0L2); cell-free assay, competition with immobilised ligand; 1 µM): 57%
